Results gathered from unrelated publications.
Numbered parts are unrelated; each lists some results of a single study. Several values in a cell are separate wells, animals, samples, runs or records.
Sequence of UniProt P42336 (whole entry, unmodified, looked up): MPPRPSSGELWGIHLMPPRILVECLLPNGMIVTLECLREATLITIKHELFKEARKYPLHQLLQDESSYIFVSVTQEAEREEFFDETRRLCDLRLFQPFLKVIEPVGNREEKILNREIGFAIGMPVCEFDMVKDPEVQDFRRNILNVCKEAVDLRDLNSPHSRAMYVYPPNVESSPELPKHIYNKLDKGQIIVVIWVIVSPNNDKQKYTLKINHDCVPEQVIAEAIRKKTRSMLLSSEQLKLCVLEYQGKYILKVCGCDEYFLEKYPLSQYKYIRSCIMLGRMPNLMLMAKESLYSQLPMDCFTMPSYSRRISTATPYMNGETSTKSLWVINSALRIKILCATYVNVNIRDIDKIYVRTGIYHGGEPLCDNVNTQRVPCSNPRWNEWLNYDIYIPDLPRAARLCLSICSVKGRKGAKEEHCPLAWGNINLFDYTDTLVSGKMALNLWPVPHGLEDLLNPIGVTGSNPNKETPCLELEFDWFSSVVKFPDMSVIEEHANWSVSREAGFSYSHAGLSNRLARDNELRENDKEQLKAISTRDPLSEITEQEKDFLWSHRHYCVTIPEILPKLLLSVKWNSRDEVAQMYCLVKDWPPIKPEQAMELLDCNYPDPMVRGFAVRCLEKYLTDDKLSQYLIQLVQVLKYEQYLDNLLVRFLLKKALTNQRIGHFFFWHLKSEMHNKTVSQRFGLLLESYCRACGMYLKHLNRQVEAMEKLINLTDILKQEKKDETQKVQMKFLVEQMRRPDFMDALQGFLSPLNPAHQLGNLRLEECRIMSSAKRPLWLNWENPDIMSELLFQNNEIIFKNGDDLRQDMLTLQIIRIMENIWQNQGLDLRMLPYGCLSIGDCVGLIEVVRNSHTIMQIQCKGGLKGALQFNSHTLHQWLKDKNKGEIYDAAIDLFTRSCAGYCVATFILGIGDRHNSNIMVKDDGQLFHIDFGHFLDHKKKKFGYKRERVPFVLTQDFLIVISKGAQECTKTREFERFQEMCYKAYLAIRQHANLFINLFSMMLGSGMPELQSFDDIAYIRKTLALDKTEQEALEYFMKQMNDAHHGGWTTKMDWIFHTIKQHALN
Sequence of UniProt P51617 (whole entry, looked up): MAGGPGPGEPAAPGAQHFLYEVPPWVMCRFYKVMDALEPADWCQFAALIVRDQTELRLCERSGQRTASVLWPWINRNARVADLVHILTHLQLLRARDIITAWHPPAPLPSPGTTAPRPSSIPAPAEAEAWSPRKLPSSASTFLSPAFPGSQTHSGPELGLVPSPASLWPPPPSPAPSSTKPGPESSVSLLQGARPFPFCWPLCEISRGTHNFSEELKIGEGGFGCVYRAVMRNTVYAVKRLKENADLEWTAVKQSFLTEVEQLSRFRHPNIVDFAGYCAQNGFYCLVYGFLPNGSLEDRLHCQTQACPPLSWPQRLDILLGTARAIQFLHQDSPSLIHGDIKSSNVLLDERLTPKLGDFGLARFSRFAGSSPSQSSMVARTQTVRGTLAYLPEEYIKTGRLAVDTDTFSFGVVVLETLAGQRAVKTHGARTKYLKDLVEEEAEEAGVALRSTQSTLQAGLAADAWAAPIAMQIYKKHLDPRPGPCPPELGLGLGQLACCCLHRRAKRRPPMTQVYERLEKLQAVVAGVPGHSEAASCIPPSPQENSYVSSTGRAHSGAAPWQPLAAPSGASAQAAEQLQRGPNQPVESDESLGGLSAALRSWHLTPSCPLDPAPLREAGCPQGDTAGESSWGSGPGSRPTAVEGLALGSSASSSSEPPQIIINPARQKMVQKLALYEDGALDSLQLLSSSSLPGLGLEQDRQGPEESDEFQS
Sequence of UniProt P29317 (whole entry, looked up): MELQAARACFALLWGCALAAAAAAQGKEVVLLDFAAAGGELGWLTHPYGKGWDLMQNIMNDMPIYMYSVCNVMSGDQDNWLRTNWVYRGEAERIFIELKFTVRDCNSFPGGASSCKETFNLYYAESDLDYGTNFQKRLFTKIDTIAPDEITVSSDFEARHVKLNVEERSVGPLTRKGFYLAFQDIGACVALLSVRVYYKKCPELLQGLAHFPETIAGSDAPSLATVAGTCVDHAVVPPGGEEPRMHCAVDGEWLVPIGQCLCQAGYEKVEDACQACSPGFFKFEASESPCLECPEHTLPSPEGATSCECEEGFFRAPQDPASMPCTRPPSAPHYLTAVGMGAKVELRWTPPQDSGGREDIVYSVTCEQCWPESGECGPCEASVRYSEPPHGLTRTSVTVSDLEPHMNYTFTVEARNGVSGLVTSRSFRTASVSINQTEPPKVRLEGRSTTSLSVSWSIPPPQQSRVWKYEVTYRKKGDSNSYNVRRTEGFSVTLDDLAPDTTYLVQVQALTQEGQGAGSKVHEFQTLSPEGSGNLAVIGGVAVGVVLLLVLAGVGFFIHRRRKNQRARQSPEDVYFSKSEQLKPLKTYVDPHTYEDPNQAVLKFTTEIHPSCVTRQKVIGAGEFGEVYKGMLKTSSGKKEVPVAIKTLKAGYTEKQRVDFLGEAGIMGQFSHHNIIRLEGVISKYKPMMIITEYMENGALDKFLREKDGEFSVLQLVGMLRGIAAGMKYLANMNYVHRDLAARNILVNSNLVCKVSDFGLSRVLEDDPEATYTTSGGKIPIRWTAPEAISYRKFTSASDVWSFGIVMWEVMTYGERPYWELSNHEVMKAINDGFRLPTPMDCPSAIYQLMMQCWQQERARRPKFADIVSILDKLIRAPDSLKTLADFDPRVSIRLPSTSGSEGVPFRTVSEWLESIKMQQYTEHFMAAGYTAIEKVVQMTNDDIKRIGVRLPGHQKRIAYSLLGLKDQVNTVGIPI
Sequence of UniProt P78362 (whole entry, looked up): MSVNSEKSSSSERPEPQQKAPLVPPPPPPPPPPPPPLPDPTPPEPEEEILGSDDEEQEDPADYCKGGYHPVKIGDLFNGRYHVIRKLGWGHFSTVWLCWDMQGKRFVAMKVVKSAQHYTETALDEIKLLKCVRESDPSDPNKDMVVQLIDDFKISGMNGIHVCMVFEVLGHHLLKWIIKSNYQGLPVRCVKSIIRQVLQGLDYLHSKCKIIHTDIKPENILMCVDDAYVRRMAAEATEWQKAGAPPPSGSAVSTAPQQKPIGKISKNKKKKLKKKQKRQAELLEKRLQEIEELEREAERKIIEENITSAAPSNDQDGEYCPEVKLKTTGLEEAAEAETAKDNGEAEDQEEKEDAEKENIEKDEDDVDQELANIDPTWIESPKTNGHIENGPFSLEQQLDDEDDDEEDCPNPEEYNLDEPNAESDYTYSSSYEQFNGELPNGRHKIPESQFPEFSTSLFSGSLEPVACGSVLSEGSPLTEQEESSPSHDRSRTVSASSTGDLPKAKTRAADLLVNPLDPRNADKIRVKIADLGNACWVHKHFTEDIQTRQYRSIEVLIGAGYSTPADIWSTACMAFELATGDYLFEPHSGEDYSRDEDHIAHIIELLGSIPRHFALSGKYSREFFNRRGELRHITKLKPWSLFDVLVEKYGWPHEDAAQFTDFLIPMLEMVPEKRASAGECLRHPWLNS
Sequence of UniProt P31152 (whole entry, looked up): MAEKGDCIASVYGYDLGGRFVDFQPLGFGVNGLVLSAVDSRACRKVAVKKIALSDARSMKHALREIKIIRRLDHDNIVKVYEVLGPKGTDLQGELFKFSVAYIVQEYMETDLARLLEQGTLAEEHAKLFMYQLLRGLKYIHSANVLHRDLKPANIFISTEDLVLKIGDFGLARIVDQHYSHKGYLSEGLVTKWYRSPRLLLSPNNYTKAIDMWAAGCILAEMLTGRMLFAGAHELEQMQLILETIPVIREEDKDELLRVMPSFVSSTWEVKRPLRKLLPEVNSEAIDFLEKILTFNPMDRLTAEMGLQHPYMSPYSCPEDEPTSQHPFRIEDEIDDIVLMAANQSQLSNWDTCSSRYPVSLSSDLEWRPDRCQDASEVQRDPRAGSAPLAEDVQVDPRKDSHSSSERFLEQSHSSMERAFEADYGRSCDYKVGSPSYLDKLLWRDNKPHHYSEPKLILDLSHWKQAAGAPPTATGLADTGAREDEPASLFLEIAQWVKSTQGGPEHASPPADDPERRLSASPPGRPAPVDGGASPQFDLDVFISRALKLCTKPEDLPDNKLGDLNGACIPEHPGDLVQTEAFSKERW

Sample 1 — effect on: RNA clamping; technique: fluorescence polarization; tested at: concentration not given; with: FAM-labelled poly r(AG)8 RNA; reading: higher = more clamping
Target: Eukaryotic initiation factor 4A-I (EIF4A1, Homo sapiens, UniProt P60842)
Sequence of UniProt P60842 (whole entry, looked up): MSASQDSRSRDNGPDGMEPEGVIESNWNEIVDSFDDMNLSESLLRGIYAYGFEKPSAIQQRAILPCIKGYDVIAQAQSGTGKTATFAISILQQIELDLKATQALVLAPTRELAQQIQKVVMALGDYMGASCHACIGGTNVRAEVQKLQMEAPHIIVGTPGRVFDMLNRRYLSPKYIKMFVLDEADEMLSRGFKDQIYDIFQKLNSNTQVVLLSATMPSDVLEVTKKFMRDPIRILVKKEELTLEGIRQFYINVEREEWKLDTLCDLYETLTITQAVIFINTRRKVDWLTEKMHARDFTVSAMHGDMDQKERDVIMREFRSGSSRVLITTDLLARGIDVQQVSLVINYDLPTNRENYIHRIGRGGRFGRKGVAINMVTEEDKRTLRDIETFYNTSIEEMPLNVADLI
Compound | fluorescence polarization change
COc1ccc([C@@]23Oc4cc(OC)c(Cl)c(OC)c4[C@]2(O)c2nc4n(c(=O)c2[C@H]3c2ccccc2)CCC4)cc1 | 24.6 mP
COc1ccc([C@@]23Oc4cc(OC)cc(OC)c4[C@]2(O)[C@H](O)[C@H](C(=O)c2ccco2)[C@H]3c2ccccc2)cc1 | 46.3 mP and 34 mP
COC(=O)[C@@H]1[C@@H](c2ccccc2)[C@]2(c3ccc(OC)cc3)Oc3cc(OC)cc(OC)c3[C@@]23N=C(c2ccccc2)N[C@@]13O | 24.2 mP
COC(=O)[C@H]1C(=O)[C@@]2(NCCc3scnc3C)c3c(OC)cc(OC)cc3O[C@@]2(c2ccc(OC)cc2)[C@@H]1c1ccccc1 | -12.1 mP
COc1ccc([C@@]23Oc4cc(OC)cc(OC)c4[C@]2(O)c2nc(-c4ccc(C)cc4)[nH]c(=O)c2[C@H]3c2ccccc2)cc1 | -0.3 mP and 28.8 mP
COC(=O)[C@H]1C(=O)[C@@]2(NC(C)C)c3c(OC)cc(OC)cc3O[C@@]2(c2ccc(OC)cc2)[C@@H]1c1ccccc1 | 8.4 mP
C#CCCC(=O)O[C@@H]1[C@H](C(=O)c2ccco2)[C@@H](c2ccccc2)[C@]2(c3ccc(OC)cc3)Oc3cc(OC)cc(OC)c3[C@]12O | 2.8 mP
O=C1O[C@H]2[C@@H]1[C@H](c1ccccc1)[C@@]1(c3ccccc3)Oc3ccccc3[C@@]21O | 10.7 mP
COC(=O)[C@@H]1[C@@H](c2ccccc2)[C@]2(c3ccc(OC)cc3)Oc3cc(OC)cc(OC)c3[C@@]23N2CCCCC2=N[C@@]13O | 82.4 mP
COc1ccc([C@@]23Oc4cc(OC)cc(OC)c4[C@]2(O)[C@H](O)[C@H](C(=O)c2nccn2C)[C@H]3c2ccccc2)cc1 | 28.1 mP

Sample 2 — tested at: 1 µM
SMILES: Cc1ccc(NC(=O)c2ccnc(C(F)(F)F)c2)cc1-c1cc(OCCO)nc(N2CCOCC2)c1
target | test | conditions | how to read | remaining binding [%]
DSTYK (Homo sapiens, UniProt Q6XUX3) | competitive binding panel, refers to: RIPK5 |  | reference: vehicle | 90
MAPK4 (Homo sapiens, UniProt P31152) | competitive binding panel, refers to: ERK4 |  | reference: vehicle | 96
PAK2 (Homo sapiens, UniProt Q13177) | competitive binding panel |  | reference: vehicle | 100
STK17A (Homo sapiens, UniProt Q9UEE5) | competitive binding panel, refers to: DRAK1 |  | reference: vehicle | 91
EPHA2 (Homo sapiens, UniProt P29317) | competitive binding panel |  | reference: vehicle | 63
IRAK1 (Homo sapiens, UniProt P51617) | competitive binding panel |  | reference: vehicle | 100
ERBB2 (Homo sapiens, UniProt P04626) | competitive binding panel |  | reference: vehicle | 72
BRSK1 (Homo sapiens, UniProt Q8TDC3) | competitive binding panel |  | reference: vehicle | 93
SRPK2 (Homo sapiens, UniProt P78362) | competitive binding panel |  | reference: vehicle | 100
RPS6KA5 (Homo sapiens, UniProt O75582) | competitive binding scan | C-terminal kinase domain 2 |  | 100

Sample 3 — effect on: enzyme activity; action: inhibitor; tested at: 0.5 µM; reference: control
Target: G protein-coupled receptor kinase 6 (GRK6, Homo sapiens, UniProt P43250)
Sequence of UniProt P43250 (whole entry, looked up): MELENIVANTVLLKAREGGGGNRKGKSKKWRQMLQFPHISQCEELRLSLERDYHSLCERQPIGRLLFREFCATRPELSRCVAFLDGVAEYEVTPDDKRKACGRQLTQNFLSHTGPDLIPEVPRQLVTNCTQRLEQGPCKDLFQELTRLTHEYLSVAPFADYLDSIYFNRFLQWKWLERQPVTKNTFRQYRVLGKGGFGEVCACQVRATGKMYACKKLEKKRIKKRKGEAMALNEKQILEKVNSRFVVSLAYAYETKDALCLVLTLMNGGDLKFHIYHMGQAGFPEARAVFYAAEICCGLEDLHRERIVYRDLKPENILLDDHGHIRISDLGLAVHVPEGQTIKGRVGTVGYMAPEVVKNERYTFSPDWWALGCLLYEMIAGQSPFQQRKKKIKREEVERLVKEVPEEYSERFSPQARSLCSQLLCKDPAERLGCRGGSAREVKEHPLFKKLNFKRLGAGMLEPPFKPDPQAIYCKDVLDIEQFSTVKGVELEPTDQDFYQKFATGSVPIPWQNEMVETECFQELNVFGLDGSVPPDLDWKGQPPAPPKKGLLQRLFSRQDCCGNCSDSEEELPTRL
Compound | remaining activity [%]
O=C(Nc1cccc(Nc2nccc(Nc3cccc(C(F)(F)F)c3)n2)c1)C1CC1 | 93.8
Ic1cccc(CSc2nnc(-c3ccncc3)o2)c1 | 100
O=C(NC(NC(=S)Nc1ccc(F)c([N+](=O)[O-])c1)C(Cl)(Cl)Cl)C(c1ccccc1)c1ccccc1 (stereo not drawn) | 97.5
C[C@@H]1CCN(C(=O)CC#N)C[C@@H]1N(C)c1ncnc2[nH]ccc12 | 101
Cc1cn(-c2cc(NC(=O)c3ccc(C)c(Nc4nccc(-c5cccnc5)n4)c3)cc(C(F)(F)F)c2)cn1 | 108
CCN(CC)CCNC(=O)c1c(C)[nH]c(/C=C2\C(=O)Nc3ccc(Cl)cc32)c1C | 46.3
c1ccc(-c2[nH]ncc2-c2ccnc3ccccc23)nc1 | 94.6
c1ccc(-c2cnc(Nc3ccc(OCCN4CCCC4)cc3)s2)cc1 | 96.1
Cn1nc2c3c(cccc31)C(=O)c1ccccc1-2 | 89.2
Cc1nc2cc3nc(-c4cccs4)cnc3cc2n1C | 104
COc1cc2ncnc(Nc3ccc(O)c(Br)c3)c2cc1OC | 104
N#C/C(=C\c1ccc(O)c(O)c1)C(=O)NCc1ccccc1 | 101
O=C1c2ccccc2-c2n[nH]c3cccc1c23 | 90.1

Sample 4 — effect on: cell-free assay; technique: competition with immobilised ligand; tested at: 1 µM
Structure (SMILES): O=C(N1CCS(=O)(=O)CC1)N1C[C@H](c2ccc(OC(F)(F)F)cc2)C[C@H](c2nc(C3CC3)no2)C1
target | remaining binding
DCLK2 (Homo sapiens, UniProt Q8N568) | 0%
PDGFRB (Homo sapiens, UniProt P09619) | 100%
MAP3K11 (Homo sapiens, UniProt Q16584) | 100%
PIK3CA (Homo sapiens, UniProt P42336, E545A) | 100%
HUNK (Homo sapiens, UniProt P57058) | 100%
EPHA7 (Homo sapiens, UniProt Q15375) | 96%
EGFR (Homo sapiens, UniProt P00533, del752-759) | 55%
MKNK1 (Homo sapiens, UniProt Q9BUB5) | 100%
CIT (Homo sapiens, UniProt O14578) | 100%
Cyclin-dependent kinase 4, with cyclin D1 (CDK4, Homo sapiens, UniProt P11802) | 96%
BRAF (Homo sapiens, UniProt P15056) | 100%
LCK (Homo sapiens, UniProt P06239) | 100%
Tyrosine-protein kinase ABL1, non-phosphorylated (ABL1, Homo sapiens, UniProt P00519, Q252H) | 100%
SIK3 (Homo sapiens, UniProt Q9Y2K2) | 77%
MAP3K13 (Homo sapiens, UniProt O43283) | 98%
AKT2 (Homo sapiens, UniProt P31751) | 90%
DAPK3 (Homo sapiens, UniProt O43293) | 100%
EGFR (Homo sapiens, UniProt P00533, del746-750) | 92%
WNK4 (Homo sapiens, UniProt Q96J92) | 100%
FLT3 (Homo sapiens, UniProt P36888, N841I) | 100%
SGK2 (Homo sapiens, UniProt Q9HBY8) | 76%
PIK3CA (Homo sapiens, UniProt P42336, M1043I) | 100%
KIT (Homo sapiens, UniProt P10721, D816V) | 100%
Tyrosine-protein kinase ABL1, non-phosphorylated (ABL1, Homo sapiens, UniProt P00519, F317L) | 89%

A few entries again (sample 1):
Compound | fluorescence polarization change
COC(=O)[C@@H]1[C@@H](c2ccccc2)[C@]2(c3ccc(OC)cc3)Oc3cc(OC)cc(OC)c3[C@@]23N=C(c2ccccc2)N[C@@]13O | 24.2 mP
COC(=O)[C@H]1C(=O)[C@@]2(NCCc3scnc3C)c3c(OC)cc(OC)cc3O[C@@]2(c2ccc(OC)cc2)[C@@H]1c1ccccc1 | -12.1 mP
COc1ccc([C@@]23Oc4cc(OC)cc(OC)c4[C@]2(O)c2nc(-c4ccc(C)cc4)[nH]c(=O)c2[C@H]3c2ccccc2)cc1 | -0.3 mP and 28.8 mP
COC(=O)[C@H]1C(=O)[C@@]2(NC(C)C)c3c(OC)cc(OC)cc3O[C@@]2(c2ccc(OC)cc2)[C@@H]1c1ccccc1 | 8.4 mP
C#CCCC(=O)O[C@@H]1[C@H](C(=O)c2ccco2)[C@@H](c2ccccc2)[C@]2(c3ccc(OC)cc3)Oc3cc(OC)cc(OC)c3[C@]12O | 2.8 mP
O=C1O[C@H]2[C@@H]1[C@H](c1ccccc1)[C@@]1(c3ccccc3)Oc3ccccc3[C@@]21O | 10.7 mP
COC(=O)[C@@H]1[C@@H](c2ccccc2)[C@]2(c3ccc(OC)cc3)Oc3cc(OC)cc(OC)c3[C@@]23N2CCCCC2=N[C@@]13O | 82.4 mP
COc1ccc([C@@]23Oc4cc(OC)cc(OC)c4[C@]2(O)[C@H](O)[C@H](C(=O)c2nccn2C)[C@H]3c2ccccc2)cc1 | 28.1 mP
